Experimental data gathered from unrelated publications.
Protocols differ between the studies behind these lines. “And” joins repeats or separate records; there may be more than shown. ± gives the spread as reported.
CHRM4: Muscarinic acetylcholine receptor M4 (CHRM4, Homo sapiens, UniProt P08173)
Sequence of UniProt P08173 (whole entry, looked up): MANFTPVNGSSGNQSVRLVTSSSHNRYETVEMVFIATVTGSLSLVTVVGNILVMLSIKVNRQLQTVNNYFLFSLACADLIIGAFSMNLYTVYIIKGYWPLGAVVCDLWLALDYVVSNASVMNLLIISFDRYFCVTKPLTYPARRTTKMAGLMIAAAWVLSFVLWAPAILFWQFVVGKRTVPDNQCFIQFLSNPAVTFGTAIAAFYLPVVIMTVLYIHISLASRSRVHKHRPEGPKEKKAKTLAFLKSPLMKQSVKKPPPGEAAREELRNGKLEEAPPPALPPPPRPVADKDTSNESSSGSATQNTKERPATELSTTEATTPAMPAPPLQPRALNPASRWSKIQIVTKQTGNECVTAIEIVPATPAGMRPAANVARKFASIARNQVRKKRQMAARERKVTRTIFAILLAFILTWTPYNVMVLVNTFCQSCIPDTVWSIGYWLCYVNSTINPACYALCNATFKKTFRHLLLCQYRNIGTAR
CHRM1: Muscarinic acetylcholine receptor M1 (CHRM1, Homo sapiens, UniProt P11229)
Sequence of UniProt P11229 (whole entry, looked up): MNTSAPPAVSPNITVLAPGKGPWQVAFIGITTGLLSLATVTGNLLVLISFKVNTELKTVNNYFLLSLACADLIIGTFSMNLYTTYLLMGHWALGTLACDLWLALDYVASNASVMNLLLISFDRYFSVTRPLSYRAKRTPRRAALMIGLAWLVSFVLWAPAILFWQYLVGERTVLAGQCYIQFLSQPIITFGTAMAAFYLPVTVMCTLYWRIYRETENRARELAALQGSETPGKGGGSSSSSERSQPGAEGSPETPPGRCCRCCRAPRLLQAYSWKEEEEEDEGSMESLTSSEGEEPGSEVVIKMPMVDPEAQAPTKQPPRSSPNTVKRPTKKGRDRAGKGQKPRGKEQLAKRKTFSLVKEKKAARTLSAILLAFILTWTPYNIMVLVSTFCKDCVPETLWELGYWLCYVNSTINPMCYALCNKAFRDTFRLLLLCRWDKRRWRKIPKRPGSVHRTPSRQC
Sequence of UniProt P14780 (whole entry, looked up): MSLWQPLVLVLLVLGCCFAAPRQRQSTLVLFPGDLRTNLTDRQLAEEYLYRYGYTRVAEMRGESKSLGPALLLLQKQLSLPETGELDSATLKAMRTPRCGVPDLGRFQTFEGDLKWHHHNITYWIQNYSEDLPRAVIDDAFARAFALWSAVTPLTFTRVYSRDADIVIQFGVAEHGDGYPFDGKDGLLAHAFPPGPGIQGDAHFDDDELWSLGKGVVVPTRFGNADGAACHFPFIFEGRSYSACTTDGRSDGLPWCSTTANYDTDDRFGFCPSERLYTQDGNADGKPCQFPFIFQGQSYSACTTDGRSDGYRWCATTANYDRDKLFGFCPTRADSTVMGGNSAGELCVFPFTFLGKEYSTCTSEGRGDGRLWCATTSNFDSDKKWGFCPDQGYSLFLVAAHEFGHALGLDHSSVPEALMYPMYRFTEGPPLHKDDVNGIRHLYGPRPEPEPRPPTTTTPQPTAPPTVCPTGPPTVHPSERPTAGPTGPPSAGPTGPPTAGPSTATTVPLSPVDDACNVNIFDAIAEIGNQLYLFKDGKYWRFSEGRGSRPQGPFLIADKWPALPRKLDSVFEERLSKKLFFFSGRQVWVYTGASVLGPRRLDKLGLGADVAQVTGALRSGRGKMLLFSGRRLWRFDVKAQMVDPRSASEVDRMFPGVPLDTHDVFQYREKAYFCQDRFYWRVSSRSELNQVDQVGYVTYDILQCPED
Sequence of UniProt Q92731 (whole entry, looked up): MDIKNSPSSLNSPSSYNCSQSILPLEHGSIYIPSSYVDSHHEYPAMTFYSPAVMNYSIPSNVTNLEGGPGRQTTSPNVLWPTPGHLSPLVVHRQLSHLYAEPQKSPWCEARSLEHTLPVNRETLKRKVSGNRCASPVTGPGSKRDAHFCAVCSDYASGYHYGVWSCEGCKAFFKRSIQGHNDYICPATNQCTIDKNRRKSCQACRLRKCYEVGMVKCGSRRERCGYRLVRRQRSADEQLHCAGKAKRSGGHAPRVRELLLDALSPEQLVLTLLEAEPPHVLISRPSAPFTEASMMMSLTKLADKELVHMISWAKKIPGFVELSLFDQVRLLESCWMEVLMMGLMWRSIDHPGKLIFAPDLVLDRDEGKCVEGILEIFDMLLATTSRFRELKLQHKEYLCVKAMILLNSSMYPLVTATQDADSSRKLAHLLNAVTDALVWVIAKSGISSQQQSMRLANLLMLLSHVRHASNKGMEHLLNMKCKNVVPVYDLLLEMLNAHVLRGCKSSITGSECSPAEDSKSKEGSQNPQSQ
Sequence of UniProt Q9Y5Y9 (whole entry, looked up): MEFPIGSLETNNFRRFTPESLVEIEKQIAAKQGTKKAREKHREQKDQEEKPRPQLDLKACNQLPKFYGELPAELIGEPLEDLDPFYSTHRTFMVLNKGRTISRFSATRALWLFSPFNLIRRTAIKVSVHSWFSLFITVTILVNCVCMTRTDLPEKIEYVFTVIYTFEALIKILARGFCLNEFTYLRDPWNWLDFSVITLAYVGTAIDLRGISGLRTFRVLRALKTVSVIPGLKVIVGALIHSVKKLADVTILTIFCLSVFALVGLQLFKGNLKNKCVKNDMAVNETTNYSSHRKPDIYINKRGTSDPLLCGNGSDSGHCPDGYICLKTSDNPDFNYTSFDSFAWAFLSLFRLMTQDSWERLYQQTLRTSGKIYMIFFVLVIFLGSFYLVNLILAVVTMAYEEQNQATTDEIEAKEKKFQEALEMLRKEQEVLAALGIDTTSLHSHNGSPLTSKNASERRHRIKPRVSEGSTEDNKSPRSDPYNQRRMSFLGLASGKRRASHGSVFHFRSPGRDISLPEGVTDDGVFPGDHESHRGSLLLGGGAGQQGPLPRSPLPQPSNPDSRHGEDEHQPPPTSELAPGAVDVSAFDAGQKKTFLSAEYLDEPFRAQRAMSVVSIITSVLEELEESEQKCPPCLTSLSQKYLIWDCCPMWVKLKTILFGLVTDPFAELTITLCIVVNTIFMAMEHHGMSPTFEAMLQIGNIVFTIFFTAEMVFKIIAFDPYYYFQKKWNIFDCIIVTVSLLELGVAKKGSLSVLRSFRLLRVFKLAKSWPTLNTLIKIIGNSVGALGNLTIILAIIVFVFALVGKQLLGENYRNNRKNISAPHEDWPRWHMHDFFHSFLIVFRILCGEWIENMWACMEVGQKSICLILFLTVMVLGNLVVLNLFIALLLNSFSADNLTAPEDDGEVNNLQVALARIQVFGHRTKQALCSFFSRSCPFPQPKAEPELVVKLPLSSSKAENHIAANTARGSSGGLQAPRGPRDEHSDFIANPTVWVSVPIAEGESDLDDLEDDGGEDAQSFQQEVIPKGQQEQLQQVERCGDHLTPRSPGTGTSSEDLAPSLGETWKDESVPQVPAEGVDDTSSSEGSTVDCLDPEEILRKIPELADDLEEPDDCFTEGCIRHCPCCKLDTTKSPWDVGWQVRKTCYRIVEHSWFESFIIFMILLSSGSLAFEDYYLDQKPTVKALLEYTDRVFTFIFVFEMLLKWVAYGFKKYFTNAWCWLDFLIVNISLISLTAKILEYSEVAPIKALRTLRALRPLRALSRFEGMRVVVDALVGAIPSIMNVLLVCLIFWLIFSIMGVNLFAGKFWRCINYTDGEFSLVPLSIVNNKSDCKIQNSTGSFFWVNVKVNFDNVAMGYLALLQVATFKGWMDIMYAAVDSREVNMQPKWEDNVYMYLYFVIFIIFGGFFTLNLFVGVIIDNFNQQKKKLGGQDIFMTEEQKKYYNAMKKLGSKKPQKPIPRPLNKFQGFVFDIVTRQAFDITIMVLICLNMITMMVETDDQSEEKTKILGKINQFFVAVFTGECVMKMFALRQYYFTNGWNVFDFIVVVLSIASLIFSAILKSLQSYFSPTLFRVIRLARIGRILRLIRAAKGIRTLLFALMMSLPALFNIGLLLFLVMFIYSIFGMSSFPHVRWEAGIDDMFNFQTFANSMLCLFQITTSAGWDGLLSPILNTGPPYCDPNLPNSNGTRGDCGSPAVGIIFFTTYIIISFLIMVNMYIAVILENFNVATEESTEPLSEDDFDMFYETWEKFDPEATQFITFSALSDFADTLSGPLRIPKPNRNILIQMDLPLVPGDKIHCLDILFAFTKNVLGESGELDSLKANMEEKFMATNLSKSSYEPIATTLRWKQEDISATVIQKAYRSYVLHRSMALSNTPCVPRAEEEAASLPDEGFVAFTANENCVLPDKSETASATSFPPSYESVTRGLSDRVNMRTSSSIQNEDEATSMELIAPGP
Sequence of UniProt P22309 (whole entry, looked up): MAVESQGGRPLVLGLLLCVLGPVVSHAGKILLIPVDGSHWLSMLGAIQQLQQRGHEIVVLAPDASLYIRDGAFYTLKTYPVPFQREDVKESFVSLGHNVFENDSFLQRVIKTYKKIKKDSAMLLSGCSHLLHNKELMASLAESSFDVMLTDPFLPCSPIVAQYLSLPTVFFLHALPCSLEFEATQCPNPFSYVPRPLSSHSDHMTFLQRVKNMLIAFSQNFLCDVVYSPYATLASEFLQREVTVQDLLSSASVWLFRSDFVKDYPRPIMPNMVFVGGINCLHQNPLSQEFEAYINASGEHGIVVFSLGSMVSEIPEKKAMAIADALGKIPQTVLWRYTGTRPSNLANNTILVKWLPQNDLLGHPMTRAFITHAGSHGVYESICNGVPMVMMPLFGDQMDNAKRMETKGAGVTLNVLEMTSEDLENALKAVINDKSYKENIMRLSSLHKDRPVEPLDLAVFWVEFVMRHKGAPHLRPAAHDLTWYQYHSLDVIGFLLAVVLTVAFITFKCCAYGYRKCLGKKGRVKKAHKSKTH
Sequence of UniProt Q8WTS6 (whole entry, looked up): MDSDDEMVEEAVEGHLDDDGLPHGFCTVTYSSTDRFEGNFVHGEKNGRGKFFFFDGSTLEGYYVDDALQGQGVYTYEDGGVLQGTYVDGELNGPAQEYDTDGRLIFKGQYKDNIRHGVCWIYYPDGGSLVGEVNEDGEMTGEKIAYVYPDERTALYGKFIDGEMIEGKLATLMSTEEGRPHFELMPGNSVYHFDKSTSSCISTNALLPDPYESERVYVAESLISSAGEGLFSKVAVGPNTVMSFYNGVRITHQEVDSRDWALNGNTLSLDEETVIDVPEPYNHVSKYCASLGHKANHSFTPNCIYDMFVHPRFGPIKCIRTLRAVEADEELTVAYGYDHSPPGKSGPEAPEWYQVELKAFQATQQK

CC[C@H](C)[C@H](NC(=O)[C@H](Cc1ccc(O)cc1)NC(=O)[C@@H](NC(=O)[C@@H](NC(=O)[C@H](CC(C)C)NC(=O)[C@@H](NC(=O)[C@H](CO)NC(=O)[C@H](Cc1ccc(O)cc1)NC(=O)[C@@H](NC(=O)[C@H](CCC(N)=O)NC(=O)CNC(=O)[C@@H](NC(=O)[C@H](CC(C)C)NC(=O)[C@H](CO)NC(=O)[C@H](CC(C)C)NC(=O)[C@H](Cc1ccc(O)cc1)NC(=O)[C@H](CCCNC(=N)N)NC(=O)[C@H](CCC(N)=O)NC(=O)[C@H](CC(C)C)NC(=O)[C@H](CCC(=O)O)NC(=O)[C@H](CCC(N)=O)NC(=O)CNC(=O)CNC(=O)[C@H](CCC(=O)O)NC(=O)[C@H](CCCCN)NC(=O)[C@H](CC(C)C)NC(=O)[C@H](CCCCN)NC(=O)[C@H](C)NC(=O)[C@H](CCCCN)NC(=O)[C@H](CC(C)C)NC(=O)[C@H](CCCCN)NC(=O)[C@@H](N)CCC(=O)O)C(C)C)C(C)C)[C@@H](C)O)C(C)C)[C@@H](C)O)C(=O)N[C@@H](CO)C(=O)N[C@@H](CC(=O)O)C(=O)N[C@@H](Cc1c[nH]c2ccccc12)C(=O)N[C@@H](Cc1c[nH]c2ccccc12)C(=O)N[C@H](C(=O)N[C@@H](CC(C)C)C(=O)NCC(=O)NCC(=O)N[C@@H](CCC(=O)O)C(=O)N[C@@H](CCCCN)C(=O)N[C@@H](CC(C)C)C(=O)N[C@@H](CCCCN)C(=O)N[C@@H](C)C(=O)N[C@@H](CCCCN)C(=O)N[C@@H](CC(C)C)C(=O)N[C@@H](CCCCN)C(=O)N[C@@H](CCC(=O)O)C(=O)O)[C@@H](C)O  fraction bound to HDL (gel filtration; human plasma; 1 h, 37 °C): 80.8% and 81%
COc1ccc(C)c2sc(NC(=O)c3cc(F)cc(F)c3)nc12  activity (CHRM4; calcium mobilization, positive allosteric modulator; CHO expressing hM4 and Gqi5; concentration not given, with: acetylcholine EC20): inactive
Cn1cc(-c2ccc(COc3ccccc3-c3ccn(C4CCCCC4O)c(=O)c3)cn2)cn1 (centres unmarked)  log τB (efficacy) (CHRM1; IP1 accumulation, positive allosteric modulator, operational allosteric model; human cells; pKB fixed to published value, with: acetylcholine): 2.11 ± 0.12
COC(=O)c1scc(C)c1NC(=O)C(C)N1CCSCC1 (centres unmarked)  capacity factor k′ (SCN10A (Homo sapiens, UniProt Q9Y5Y9); cell membrane chromatography; higher = stronger binding): 12.8
CC(O)C(C)n1ncn(-c2ccc(N3CCN(c4ccc(OCC5COC(Cn6cncn6)(c6ccc(Cl)cc6Cl)O5)cc4)CC3)cc2)c1=O (centres unmarked)  potency ratio (enzyme activity, inhibitor; mouse kidney homogenate; 10 µM, with: 50 nM corticosterone; relative to: mouse over human enzyme): ≥ 10 fold
O=c1cc(-c2ccccc2OCc2ccc(-c3cn[nH]c3)cc2)ncn1C1CCCCC1O (centres unmarked)  change in baseline activity (CHRM1; allosteric agonist, IP1 accumulation; CHO-M1 cells; 10 µM, unit not given; relative to: maximum ACh response): 84.3 ± 3.4
GRTKQEARKSTGG  methylation conversion (SETD7 (Homo sapiens, UniProt Q8WTS6); peptide methylation, substrate, MALDI-TOF MS; peptide; 10 µM, 3 h, pH 8.0, 37 °C, enzyme 500 nM, with: SAM 30 µM): ~36%
CO[C@H]1[C@@H](O)[C@H]([n+]2cn(C)c3c(=O)[nH]c(N)nc32)O[C@@H]1COP(=O)([O-])OP(=O)(O)OP(=O)(O)OC[C@H]1O[C@@H](n2cnc3c(=O)[nH]c(N)nc32)[C@H](O)[C@@H]1O  relative translation efficiency (rabbit reticulocyte lysate; 1 h, luciferase mRNA capped with compound; relative to: m7GpppG-capped mRNA): 1.6
cardiac troponin I R21C  binding (F1FO-ATP synthase (rat heart); ELISA; concentration not given): no binding
CCCn1cc(-c2ccc(COc3ccccc3-c3cc(=O)n(C4CCCCC4O)cn3)cc2)cn1 (centres unmarked)  change in baseline activity (CHRM1; allosteric agonist, IP1 accumulation; CHO-M1 cells; 10 µM, unit not given; relative to: maximum ACh response): 72.7 ± 3
O=c1cc(N2CCOCC2)oc2c(OCc3ccccc3)cccc12  fold change in selectivity (PIK3CA (Homo sapiens, UniProt P42336, Q859D); enzyme activity; concentration not given, Gln-Asp swap; relative to: wild type): 2.9
O=c1cc(-c2ccccc2OCc2ccc([N+](=O)[O-])cc2)ncn1C1CCCCC1O (centres unmarked)  change in baseline activity (CHRM1; allosteric agonist, IP1 accumulation; CHO-M1 cells; 10 µM, unit not given; relative to: maximum ACh response): 67.4 ± 2.8
COc1ccc(C)c2sc(C(=O)NC3CCCCC3)nc12  activity (CHRM4; calcium mobilization, positive allosteric modulator; CHO expressing hM4 and Gqi5; concentration not given, with: acetylcholine EC20): inactive
Nc1nc2c(ncn2[C@@H]2O[C@H](COP(=O)(O)OP(=O)(O)OP(=O)(O)OC[C@H]3O[C@@H](n4cnc5c(N)ncnc54)[C@H](O)[C@@H]3O)[C@@H](O)[C@H]2O)c(=O)[nH]1  relative translation efficiency (rabbit reticulocyte lysate; 1 h, luciferase mRNA capped with compound; relative to: m7GpppG-capped mRNA): 0.19 ± 0.1
CC(=O)N[C@@H](CC(N)=O)C(=O)NCC(=O)N[C@@H](CCCNC(=N)N)C(=O)NCC(=O)N[C@@H](CC(=O)O)C(=O)N[C@@H](CO)C(=O)N[C@@H](CC(C)C)C(=O)N[C@@H](C)C(=O)N[C@@H](Cc1ccc(O)cc1)C(=O)NCC(=O)N[C@@H](CC(C)C)C(=O)N[C@@H](CCCNC(=N)N)C(=O)N[C@@H](CO)C(=O)N[C@@H](CCCCN)C(=O)N[C@@H](CO)C(=O)N[C@@H](CCCNC(=N)N)C(=O)N[C@@H](CO)C(=O)N[C@@H](Cc1ccccc1)C(=O)N[C@@H](CCC(N)=O)C(=O)N[C@H](C(N)=O)C(C)C  cleavage efficiency (MMP9 (Homo sapiens, UniProt P14780); substrate, LC-MS/MS; 24 h, 37 °C, with: peptide to enzyme 20:1 w/w): 99% and ~99%
O=C(O)[C@H]1O[C@@H](O[C@H]2c3cc4ccc5cccc6c7ccccc7c(c3C=C[C@@H]2O)c4c56)[C@H](O)[C@@H](O)[C@@H]1O (relative stereo)  kcat (UGT1A1 (Homo sapiens, UniProt P22309); glucuronidation, substrate; UGT-expressing HEK293 homogenate; normalized to UGT expression): 0.00733 ± 0.000833 s⁻¹
CN(c1ccccc1Cl)S(=O)(=O)C1CC2OC1C(c1ccc(O)cc1)=C2c1ccc(O)cc1 (centres unmarked)  efficacy (ESR2 (Homo sapiens, UniProt Q92731); reporter gene, antagonist; HepG2; with: estradiol 10 nM; relative to: E2 response, negative is inverse agonism): -24 ± 3%
COC(=O)c1ccc(COc2ccccc2-c2cc(=O)n(C3CCCCC3O)cn2)cc1 (centres unmarked)  ΔpEC50 of ACh (CHRM1; positive allosteric modulator, IP1 accumulation; CHO-M1 cells; 1 µM, 60 min, 37 °C, with: ACh; relative to: ACh alone, higher = stronger potentiation): 0.71 ± 0.09 log units
CCC(C)n1ncn(-c2ccc(N3CCN(c4ccc(OCC5COC(Cn6cncn6)(c6ccc(Cl)cc6Cl)O5)cc4)CC3)cc2)c1=O (centres unmarked)  potency ratio (enzyme activity, inhibitor; mouse kidney homogenate; 10 µM, with: 50 nM corticosterone; relative to: mouse over human enzyme): ≥ 10 fold
CC(C)[C@H](NC(=O)[C@@H]1CCCN1C(=O)[C@H](CCCNC(=N)N)NC(=O)[C@H](CS)NC(=O)[C@H](Cc1c[nH]c2ccccc12)NC(=O)[C@H](CCCNC(=N)N)NC(=O)[C@@H](Cc1ccccc1)NC(=O)[C@H](Cc1c[nH]cn1)NC(=O)[C@H](CCC(=O)O)NC(=O)[C@H](CS)NC(=O)[C@H](CS)NC(=O)[C@H](CCCCN)NC(=O)[C@@H]1CC(=O)N[C@@H](CCCNC(=N)N)C(=O)N[C@@H](C)C(=O)N[C@@H](CC(=O)O)C(=O)N[C@H](Cc2ccc(O)cc2)C(=O)N1)C(N)=O [technetium-99m labelled]  tissue uptake (C57 mice, lung; intravenous, 0.037 MBq, 4 h): 0.46 ± 0.11 %ID/g

A few entries again:
Cn1cc(-c2ccc(COc3ccccc3-c3ccn(C4CCCCC4O)c(=O)c3)cn2)cn1 (centres unmarked)  log τB (efficacy) (CHRM1; IP1 accumulation, positive allosteric modulator, operational allosteric model; human cells; pKB fixed to published value, with: acetylcholine): 2.11 ± 0.12
COC(=O)c1scc(C)c1NC(=O)C(C)N1CCSCC1 (centres unmarked)  capacity factor k′ (SCN10A (Homo sapiens, UniProt Q9Y5Y9); cell membrane chromatography; higher = stronger binding): 12.8
CC(O)C(C)n1ncn(-c2ccc(N3CCN(c4ccc(OCC5COC(Cn6cncn6)(c6ccc(Cl)cc6Cl)O5)cc4)CC3)cc2)c1=O (centres unmarked)  potency ratio (enzyme activity, inhibitor; mouse kidney homogenate; 10 µM, with: 50 nM corticosterone; relative to: mouse over human enzyme): ≥ 10 fold
